# Measured values of several laboratories.
# A part holds a random share of what one study measured.

# Sample 1 — method: RNA Bind-n-Seq; molecule type: RNA; matrix: in vitro; tested at: not given; baseline: input RNA pool; reading: higher = stronger binding
# Target: RING finger protein unkempt homolog, zinc fingers 1-6, GST-SBP tag (UNK, Homo sapiens, UniProt Q9C0B0, residues 30-357)
# Setting: RNA with constant flanks, human and mouse sites, ends assumed
# Constant ends, left off below: GGGAGUUCUACAGUCCGACGAUC … CAACAGAGGAUUGAGCAUCA
# Target sequence (chain): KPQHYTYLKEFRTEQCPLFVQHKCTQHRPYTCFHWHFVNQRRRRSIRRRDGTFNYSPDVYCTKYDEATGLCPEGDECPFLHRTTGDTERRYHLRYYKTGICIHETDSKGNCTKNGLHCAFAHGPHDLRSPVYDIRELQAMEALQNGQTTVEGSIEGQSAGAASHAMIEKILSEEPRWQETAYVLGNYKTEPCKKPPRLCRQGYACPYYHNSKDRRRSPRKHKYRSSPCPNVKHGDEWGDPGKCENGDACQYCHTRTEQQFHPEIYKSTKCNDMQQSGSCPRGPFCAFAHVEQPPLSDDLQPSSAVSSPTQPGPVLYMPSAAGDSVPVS
Strand,bound/input enrichment [ratio]
UUAAUCAUAGAUGGCUCCACAUUGUCACUCAUACUAAAUUCUAGUCAAGACUCUAGUUCAAACAAUUACAAAAGCAUUUUCCUACAAAUAUGUAUGAAGUGUACUGCAGUGCUCUGCUGU,1.19
AGAGGCGGAACGCGGCGGAGCCCGGGCCGCCCGCGUGUCGGGCGGACGCUGCGAAAAGAUGAAUUUGCAACUGGUUUCCUGGAUUGGAUUGAUCAGUUUGAUUUGUUCUGUAUUUGGCCA,0.157
AACUACGUGACGAUUAAGCUUUGCUUACUGCUACAUGGCAUGUAUUCUUUUCCGUCUUUUGUGUCUGGUUCUGUUUGCUUCCCCCUGCCGCACAGUGUCCAUCGCACGGUGUCUCUGUGA,0.0936
AAAUCACGAAACAAUGAAUCAGAAAAGCCCAGUUCUAAUUCAGAAGUGAGUUUACAAGUAGAUUUGAAAAGCAUUUUGGAGAAACAGUUUUCAAAAUCUUCCAGAGCUGCACACCAGGAU,0.238
UUAUUUGCGCAUUUCAAGAAGAACAACCUAACUCCAGAUAUCUACCUAAUUGAUUGGAUCUUUACCUUAUAUAGUAAAUCUCUGCCCCUCGACCUGGCCUGUCGUAUCUGGGACGUGUUC,0.57
UGAGUUCUAUUAUUGAUUAAAGAAGACAGAUUUACAUUCAGGAUUCUGGUGUCUGGAGGCUUAGCCUCAAAGCCAGUUUUGAUGACUUAGAAGGCAAUCUAUGUCACUGUCCCCACAAAG,0.169
GUAUUUCUUAAACCUCAACUCUAGGUCUCCUGAAUACCUCUCAUUAUUUAUUGAUGAUAAACUGAAAAAGGGAGUCAAAGGGCUAACAGAACAAGAAGUAGAAACAAUAUUGGAUAAGGC,0.8
AAUGAACACUUUAAUAUUUUCCUUACUGCUAAGGACCUGAACGCCUACAAGAAGCAAGGGAUAGCAUUGCUGACCAGAAUGGGCGAGUCAGUCAAGCACGUCACUGGCGGCUACAAGCUG,0.185
AUGGCAGCUCAUGUCAGUAGGGACAGAGUUAUAAAGAACUGUAUAGCCCAGACCUCAGCAGUAGUAAAAAGUCUCCGAGAAGAGAGAGAAAAGAACCUGGAUGACUUAACGUUAUUAAAG,0.685
CUCCCGCCCGAACCGUAGCCGCGACCCGCAGUCUCGCCCGCUCAGCGGCCUGAGGCGCGUCGCUUUCUCGUGUCCCCUCGUCGGGCCUAAUCGCCGCUCCUGCCCGGCCCGCCGGCCCAC,0.347
CUAACCCUGAGGCAGUGAUGGGAAAAAUUGCCUUGAUACAAAGAGGACAGUGCAUGUUUGCAGAAAAGGCACGCAACAUUCAGAAUGCUGGCGCCAUCGGUGGCAUUGUGAUCGAUGACA,0.121

# Sample 2 — method: RNA Bind-n-Seq; molecule type: RNA; matrix: in vitro; tested at: 365 nM; baseline: no-protein control; reading: higher = stronger binding
# Target: RNA binding protein fox-1 homolog 2, RRM domain, GST-SBP tag (RBFOX2, Homo sapiens, UniProt O43251-10, residues 100-194)
# Setting: natural RNA segment, single round, ends assumed
# Constant ends, left off below: GGGAGUUCUACAGUCCGACGAUC … UGGAAUUCUCGGGUGCCAA
# Construct (chain): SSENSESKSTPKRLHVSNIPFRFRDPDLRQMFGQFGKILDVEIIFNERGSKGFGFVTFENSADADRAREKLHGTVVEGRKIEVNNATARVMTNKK
Strand,RBNS enrichment (R)
GAGUCCUAGGUAUGAACCCAAAAGCCCUGGGUACGGUUCAAAGAGCCCCGAAUUUGAAUCUCAAAGUCCAGGGUAUGAAUCUCAGAGCCCCGGGUAUGAACCGCAGAACU,0.304
UGAAGCUUGGAAACACAGCUGGGAAGUUUGUAUUCAUUUACUUAGUAGAUAUGUGCAGAGCUCCUUGUGUAUGUCUGUGACUGGUUAGACCCCACGCCCCUCACUGAGCU,0.324
AACAUGCUUAGUAGUUUUUAUACUAAUCAAAUGAAUUAUCACAGCACCUAGACAAUAACUUAGUUUUGCAUGCUUACAUUGGUCAUCCUUUUUAUGUACAUCAUUAAUCU,1.25
AUUACAUAGCAUACCUGUAUUUCAGUUAAAAACCAGACCCUAUGGUGUUGGGUAGACACUGACAGUUGAGAGGGUCACCAGGGUGCCACUCUAGUGUGAAGUCCUCUUCU,0.326
UGUCUGGAACAGGAAAGAGGUAUAGGUGCCUAUCCACUGCCACUCUGCACGACUGAAGGGCCAGGCGUAAAGAUGACUGACAGAAGUGUAGACUAGAGGAGAGGCUAGAG,0.399
AUGGAAGUCCGUCAGGGAACAGGUAGUUCUAAGUGCGUGGCUAAAUGAUUUGGACAAGCUCCUGUGUGUGCUGAGACCUGGCUGGCCAGCUGCUAGAGGGGAAAAACAAU,0.627
UUCCUCAAUGGGGGUUCAUGUUCUUGGACUGCGGGCCCUCAGUCCUUAACUGGAAAGUGACCGUCCACUGCCCCAUGGAGCCCAUCUGGACACAGCACAGCCCCAAAACC,0.21
AAUGAGAAUUUUAAGUAUUUGCAAUAAAUAUGUGUAUAUAGAUUGUAUGUAUUCAUAUAUUAUUUUUCAUUUUAUUAUUAAGUAAAAGAUAAUUAAAAGUGAAAUUAAAA,1.41
GACGGACCCGCUGUGCCUUCUACCAUCGUUCCACCAUUGAUGUACAUACUCAUGUUUUACAUCUUUUCUUUCUGCCGCUCGGCUCCGGCCAUUUUGUUUUAUACAAAAAU,0.658
CAACGAGUUAAUAAUUCUCAUUCAUCGUUUACACAAUGUAACAUGUGUCAUACUGGGGCCAGCGAGAUGGCUCAGUAGGUAAAGGUGCUUGAUGCUAAGCCCGGCAGCCU,0.616
AUUGCAAGCAGUUGCUGAGCCUGCUGGUGAACACCAUUGCAAGCAGUUGCUGAGCCUGCUCGUGAACACCAUUGCAAGCCAUUGCUGUCAAGCUUCAUGAGUUAAAUUUA,0.367
UAGCUGCUAGGCAGACUGUUAAGUAUUAGGGGAAAAUUGCUCUUAAAUUUUCCUAGCUGUAAGCUUAAGUCUCCUUUGUAUCCCUCUGUUGGUGGGGAAAGGUGUCUUUC,0.868

# Sample 3 — method: RNA Bind-n-Seq; molecule type: RNA; matrix: in vitro; tested at: 200 nM; setting: whole 134-nt RNA, ends assumed; with: 150 mM KCl; baseline: input library; reading: higher = stronger binding
# Target: Fragile X messenger ribonucleoprotein 1, C-terminal low-complexity region (Fmr1, Mus musculus, UniProt P35922)
# Constant ends, left off below: GGGAGUUCUACAGUCCGACGAUC … UGGAAUUCUCGGGUGUCAAGG
Strand,log2 enrichment
UCAAGUCCUGUGCUACACAUCGUAUGUACCGAAUCGGGAGGGAGGGUUUUUGGGAAAGUAUUAUGUUACGCCGUUCGGAUCUGCACUUCC,1.13
CCUGUGCUACACAUCGUAUGUACCGAAUCGGGAAAAAAGGAAAAAAGGGGAAAAAAGGGGAAAGUAUUAUGUUACGCCGUUCGGAUCUGC,-0.507
CAAGUCCUGUGCUACACAUCGUAUGUACCGAAUCGGAAAAAGGUGGAAAAAAAGGAAAGUAUUAUGUUACGCCGUUCGGAUCUGCACUUC,-0.87
GUCCUGUGCUACACAUCGUAUGUACCGAAUCGGCCCCCGGGGCCCCCGGCCCCCGGGGAAAGUAUUAUGUUACGCCGUUCGGAUCUGCAC,-0.482
AAGUCCUGUGCUACACAUCGUAUGUACCGAAUCGGGUGGGUUUUUGGGAAAAAGGGAAAGUAUUAUGUUACGCCGUUCGGAUCUGCACUU,0.607
UAACUUUAGAGGAGGAUCUGAUGGAUAUGGCAGUGGACGUGGAUUUGGGGAUGGCUAUAAUGGGUAUGGAGGAGGACCUGUAGGUGGCAA,0.141
GCAGGAAGUAAAAACAAAUGGAAAUGAAACGGAUAGUGGCAGGGGUGGGGGUUGCUAAGGAAAGGGUGGGAUGGGAGUGGGUAAAGAGUU,-0.00583
UAACUUUAGAGGAGGAUCUGAUGGAUAUGGCGGUGGACGUGGAUUUGGGGAUGGCUAUAAUGGGUAUGGAGGAGGACCUGGAGGUGGCAA,0.42
ACCAUGCAGGUGGGCAUCUUUGGAAAGUGGGGCAAGGGGGGGAUAGGGAGGGGGGUAACACUUUGGGAACAGGUGGUCCCAGGUCGUUUC,0.753
CUGUGCUACACAUCGUAUGUACCGAAUCGGGGAAAAAAAGGGGAAAAAAAGGAAAAAAAGGGAAAGUAUUAUGUUACGCCGUUCGGAUCU,-0.407
AGUCCUGUGCUACACAUCGUAUGUACCGAAUCGGGGCCCCGGGCCCCGGGGCCCCGGAAAGUAUUAUGUUACGCCGUUCGGAUCUGCACU,-0.0567
CCUCAAGUCCUGUGCUACACAUCGUAUGUACCGAAUCGGGAAGGAAGGAAGGGAAAGUAUUAUGUUACGCCGUUCGGAUCUGCACUUCCA,-0.325
UUCACAGGUAAGUGGGGCAGUGUCCGGACCAGUGGACGCAGCAGUGGCCUUGGCACCGAUGUGGGCUCCCGGCUAGCUGGCAGAGACGCG,-0.203
UCCUGUGCUACACAUCGUAUGUACCGAAUCGGGGAAAAAGGGGAGGGGAAAAAAAGGGGAAAGUAUUAUGUUACGCCGUUCGGAUCUGCA,0.291

# Sample 4 — method: protein binding microarray; molecule type: double-stranded DNA, one strand shown; matrix: in vitro; tested at: not given; baseline: not given; reading: higher = stronger binding
# Target: Histone acetyltransferase KAT6A, both winged helices, GST fusion (KAT6A, Homo sapiens, UniProt Q92794, residues 1-181)
# Setting: 8-mer, flanks averaged, mean of 2 arrays, mostly near background
# Target sequence (chain): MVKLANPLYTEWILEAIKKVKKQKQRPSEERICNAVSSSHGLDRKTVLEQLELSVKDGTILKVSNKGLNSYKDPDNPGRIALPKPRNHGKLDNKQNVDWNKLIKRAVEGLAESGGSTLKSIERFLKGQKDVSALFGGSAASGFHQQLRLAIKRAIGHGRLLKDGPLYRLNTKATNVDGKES
Strand,E-score
CCGGACCA,0.134
GGTTGAAC,0.0573
TATAAGAA,-0.166
AAAAGTAC,0.0116
CATCGGAA,0.0815
GAGAAAAA,-0.0111
CAGACGCA,-0.00758
CAAGCGGA,0.0948
CCAGCAAC,-0.153
ACAAAACA,-0.193
AGACGGGG,0.149
GCAGACCA,-0.0707
AGCCTCTC,-0.261
TACAGCCA,-0.18
CCCGTTGA,0.183
GGTAGAAA,0.0321
ACTAATAA,-0.0528

# Sample 5 — method: universal PBM; molecule type: double-stranded DNA, one strand shown; matrix: in vitro; tested at: not given; reading: higher = stronger binding
# Target: Sal-like protein 4, full length isoform B (SALL4, Homo sapiens, UniProt Q9UJQ4-2, residues 1-616)
# Setting: 8-mer, flanks averaged, mean of replicates
Strand,E-score
AAAGCATG,0.0958
AAACACTA,0.235
TAATCTAA,0.231
ACATAGGA,0.0526
AAACGCTG,-0.0889
CGTATACC,-0.245
ATGCCAAA,0.155
CCACAGGC,-0.353
TCATGCGA,-0.0121
CTAGTGAG,-0.0614
ATCCGCCC,-0.285
GCTCCCCC,-0.293
AGGTAAAG,0.111
CTCATAAC,0.25
CTTAAGTC,-0.105
TAGAGAGA,-0.0212
ATAGAGGC,-0.0158
ACGTGAGT,0.00663
CATGGGAA,-0.0187
TAGGGCGA,-0.0662
TTCATCAA,0.238
CCGCGAAA,-0.158
AGACGTCG,-0.0754

# Repeated from above (sample 4):
Strand,E-score
GAGAAAAA,-0.0111
CAGACGCA,-0.00758
CAAGCGGA,0.0948
CCAGCAAC,-0.153
ACAAAACA,-0.193
AGACGGGG,0.149
